Results from different studies.
Every numbered part comes from another study and shows a few of its results, in no order.

Study 1
Target: Histone acetyltransferase KAT6A, winged helix 1, GST fusion (KAT6A, Homo sapiens, UniProt Q92794, residues 1-85)
Method: protein binding microarray
Molecule type: double-stranded DNA, one strand shown
Matrix: in vitro
Concentration: not given
Setting: 8-mer, flanks averaged, mean of 2 arrays, mostly near background
Relative to: not given
Reading: higher = stronger binding
Residues (chain): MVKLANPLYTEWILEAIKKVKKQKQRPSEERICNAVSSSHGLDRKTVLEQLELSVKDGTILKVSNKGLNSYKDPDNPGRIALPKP
Oligonucleotide | E-score
GCCCGTTA | 0.346
GAAAAAGA | -0.124
CCAAATCC | -0.174
AGTTTACC | -0.103
ACGTCGTG | -0.0729
CCAGGTGA | -0.274
AGTGGTAA | -0.22
ATCAGGCG | -0.00526
AATGCACG | -0.0145
ATTTCCTG | -0.128
GCTTTTCA | -0.115
CGCAGGTA | 0.134
GATGTCCC | 0.149
GAATTGTC | -0.151
ATCAGAAC | -0.113
CGATACGC | 0.316
CAGAGACA | -0.216
AGACTCAT | -0.186
ATGGCCGC | 0.35
AAGAGGCT | -0.278
CGACCCAG | 0.0303
GACTGTAA | -0.00456
TCAAGGAA | -0.075
ACGCAAAA | 0.212
AGTGCTAT | -0.243

Study 2
Target: Ras GTPase-activating protein-binding protein 1, C-terminal RGG region (G3BP1, Homo sapiens, UniProt Q13283)
Chain of UniProt Q13283 (whole entry, looked up): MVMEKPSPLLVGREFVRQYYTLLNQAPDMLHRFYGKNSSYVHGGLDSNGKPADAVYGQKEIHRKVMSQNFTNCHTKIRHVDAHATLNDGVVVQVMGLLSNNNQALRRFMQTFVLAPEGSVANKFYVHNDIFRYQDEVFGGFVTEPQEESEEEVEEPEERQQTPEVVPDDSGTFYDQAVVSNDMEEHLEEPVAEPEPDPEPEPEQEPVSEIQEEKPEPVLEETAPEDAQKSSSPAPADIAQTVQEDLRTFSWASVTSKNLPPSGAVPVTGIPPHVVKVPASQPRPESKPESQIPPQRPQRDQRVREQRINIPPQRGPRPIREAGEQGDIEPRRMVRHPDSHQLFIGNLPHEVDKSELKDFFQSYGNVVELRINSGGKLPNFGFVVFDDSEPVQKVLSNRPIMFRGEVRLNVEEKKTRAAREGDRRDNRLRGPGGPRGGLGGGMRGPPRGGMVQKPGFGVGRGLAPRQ
Method: RNA Bind-n-Seq
Molecule type: RNA
Matrix: in vitro
Concentration: 1 µM
Setting: whole 134-nt RNA, ends assumed
Together with: 150 mM KCl
Relative to: input library
Reading: higher = stronger binding
All sequences stand within: GGGAGUUCUACAGUCCGACGAUC … UGGAAUUCUCGGGUGUCAAGG
Oligonucleotide | log2 enrichment
UGUGCUACACAUCGUAUGUACCGAAUCGGGAAAAAAAGGGGAAAAAAAGGGAAAAAAAGGGGAAAGUAUUAUGUUACGCCGUUCGGAUCU | -0.521
CACAGACAACACGCACCCACACAGACACAGAGGGAAGGGGUUGGGAUGAAAACAGGGUGCACAGCAGGGCGGGGUAGGACCCCAGCCCCU | -0.294
GUCCUGUGCUACACAUCGUAUGUACCGAAUCGGGGAGGGGUUUUUGGGGAAAAAGGGGAAAGUAUUAUGUUACGCCGUUCGGAUCUGCAC | 0.956
GCAGUAAGUAAAAACAAAUGGAAAUGCUUCGGAUAGUGGCAGGGGUGGGGGUUGCUAAGGAAAGGGUGGGAUGGGAGUGGGUAAAGAGUU | 1.75
UAACUUUAGAGGAGGAUCUGAUGGAUAUGGCAGUGGACGUGGAUUUGGGGAUGGCUAUAAUGGGUAUAGAGGAGGACCUGGAGGUGGCAA | -0.847
UGGGAGGUGGAUUUUGUUUAUUUUUUUAGCUCAUUUCCAGGGGUGGGAAUUUUUUUUUAAUAUGCGUCAUGAAUAAAGUUGUUUUUGAAA | 3.4
UCCUGUGCUACACAUCGUAUGUACCGAAUCAAAUUUUUAAACCCCCCCAAACCCCCAAAAAAGUAUUAUGUUACGCCGUUCGGAUCUGCA | -0.567
UCCUGUGCUACACAUCGUAUGUACCGAAUCGGGGUUUGGGGUUUUUUUGGGGUUUGGGGAAAGUAUUAUGUUACGCCGUUCGGAUCUGCA | 2.02
GUCCUGUGCUACACAUCGUAUGUACCGAAUCGGUUUUUGGGUUUUUGGGGUUUUUGGGGAAAGUAUUAUGUUACGCCGUUCGGAUCUGCA | -0.754
CCUCAAGUCCUGUGCUACACAUCGUAUGUACCGAAUCGGAAAGGAAAGGUGGAAAGUAUUAUGUUACGCCGUUCGGAUCUGCACUUCCAG | -0.875

Study 3
Target: Sal-like protein 4, full length isoform A (SALL4, Homo sapiens, UniProt Q9UJQ4, residues 1-1053)
Chain of UniProt Q9UJQ4 (whole entry, looked up): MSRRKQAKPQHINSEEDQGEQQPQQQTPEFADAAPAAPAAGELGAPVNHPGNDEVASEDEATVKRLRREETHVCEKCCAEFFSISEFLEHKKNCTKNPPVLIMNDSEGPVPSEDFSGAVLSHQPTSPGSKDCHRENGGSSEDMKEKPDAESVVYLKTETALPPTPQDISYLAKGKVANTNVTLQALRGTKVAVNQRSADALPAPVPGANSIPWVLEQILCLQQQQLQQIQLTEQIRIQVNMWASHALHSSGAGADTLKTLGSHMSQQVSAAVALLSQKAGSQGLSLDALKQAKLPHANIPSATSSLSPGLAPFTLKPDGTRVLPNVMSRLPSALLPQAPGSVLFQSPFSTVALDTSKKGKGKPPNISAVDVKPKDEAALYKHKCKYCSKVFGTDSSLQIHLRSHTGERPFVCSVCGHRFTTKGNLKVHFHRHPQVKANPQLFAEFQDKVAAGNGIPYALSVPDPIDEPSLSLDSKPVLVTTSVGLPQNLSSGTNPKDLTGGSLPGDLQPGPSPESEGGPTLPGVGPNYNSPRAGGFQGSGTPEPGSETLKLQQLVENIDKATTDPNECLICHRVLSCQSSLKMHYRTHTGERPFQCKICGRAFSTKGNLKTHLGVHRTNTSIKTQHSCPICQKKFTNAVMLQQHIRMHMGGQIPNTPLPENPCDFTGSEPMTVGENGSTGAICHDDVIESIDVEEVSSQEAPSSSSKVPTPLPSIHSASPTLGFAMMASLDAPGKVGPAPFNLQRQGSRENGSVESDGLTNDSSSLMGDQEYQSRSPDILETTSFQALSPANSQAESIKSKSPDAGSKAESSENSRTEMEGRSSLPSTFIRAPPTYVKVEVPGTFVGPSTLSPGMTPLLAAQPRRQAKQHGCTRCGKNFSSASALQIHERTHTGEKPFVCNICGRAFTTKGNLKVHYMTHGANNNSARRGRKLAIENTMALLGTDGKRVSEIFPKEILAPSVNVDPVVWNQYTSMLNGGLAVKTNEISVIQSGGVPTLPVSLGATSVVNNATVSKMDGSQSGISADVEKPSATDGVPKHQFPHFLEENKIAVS
Method: universal PBM
Molecule type: double-stranded DNA, one strand shown
Matrix: in vitro
Concentration: 600 nM
Setting: 8-mer, flanks averaged, mean of replicates
Reading: higher = stronger binding
Oligonucleotide | E-score
CCCGCCAC | -0.115
CGGTCGTC | -0.288
CTGTGTTA | 0.0996
CTTGGTGC | -0.0265
CCCGCATC | -0.236
GACACCGC | -0.339
ACTTTCAA | 0.198
AAAGCCTA | 0.036
ACCAATGC | -0.111
AGAGAGCG | -0.148
TCTTCCAA | 0.15
TAACCATA | 0.286
CAGATATC | 0.146
AGCTACGC | -0.131
AAGGATGG | -0.03
AAATACTC | 0.238
GTAACGAA | 0.141
GCCACACA | -0.203
CTATGTGC | -0.00341
CCCTTCCG | -0.22
GACACGGA | -0.152
AGTAATCA | 0.0561
ATAGGTAC | 0.161
ACTCCTCT | -0.0737
GAAAAAGA | 0.154

Study 4
Target: RNA binding protein fox-1 homolog 2, RRM domain, GST-SBP tag (RBFOX2, Homo sapiens, UniProt O43251-10, residues 100-194)
Method: RNA Bind-n-Seq
Molecule type: RNA
Matrix: in vitro
Concentration: 365 nM
Setting: natural RNA segment, single round, ends assumed
Relative to: no-protein control
Reading: higher = stronger binding
All sequences stand within: GGGAGUUCUACAGUCCGACGAUC … UGGAAUUCUCGGGUGCCAA
Residues (chain): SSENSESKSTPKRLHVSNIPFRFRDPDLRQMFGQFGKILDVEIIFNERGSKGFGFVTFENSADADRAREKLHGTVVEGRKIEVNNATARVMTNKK
Oligonucleotide | RBNS enrichment (R)
GCCUUGCUGGGUGGAGCCUCUGUGUGACUCCAUACUCCUCCCACCACAACACUCAUCUGUCAAACACCAAGCACUCUCAGCCUCCCCGCCUUCAGCUGUCAGCUUUCUGG | 0.6
ACUCCGAGUGUGUGCCAUCCAUUUGUUAAGUAACUGGCCUUUAGCAGAUCUGUUUCAAAAACAAAUACAAAAAUGAGAAUGAAAAGUUUGCUUAAGACUAAGUCCAGUGU | 0.41
UGGUUGAUUAGAGAUUCUGAGAAGCAGUAGAGCUGGCUGGGAGGUGGGCUACAGAGGAGCAAGCAAGCACUUCAGACUGACCAAAGGUUGUGGUGGCCCACAUGGCUCUG | 0.713
GCCCACGCUUAGGAAUGCUUGGCCUCUGGCAGGCAGGCAGCUGUACCCAAGCUGGUGGGCAGGGGGCUGGAAGGCACCAGGCCUCAGGAGGAGCCCCAUAGUCCCGCCUG | 0.429
AAGGAGCUCUUCAGUUGGAGAUCUAGGCAGUGGGUUAAGCCAGACCCCUAAAGUGACCCUUUCCUCUUCUGCCCUAUUCUUCUCAGACCCUCAGAAAGACAUCCAAUUUU | 0.22
GUGUAUGGUUAAACUGUAAAUCUUAUGUUUACAAAAUACUGUAAUUUUCAGGAAAUCACUGUAUUAGGAAUGUGCAAUGACUUAUAUAAAUAAAAGCCAUUUUUAAAACU | 0.461
GCCCUGUCCCUUCCUCCAGAUCCGUCUGGUUUUUUACACCGUUUGUUAAUAAAGCCUGAAACCGCUGUGUGCCUGUCUCUUCUCUGAUGGCUUUCCCAGUCUGUCUCCGG | 0.999
CUCAGACUGUCCUGCAUGAAGGCAGGAGAGCUGAACUCUCUCUGGUCCUUGUCUUUCCCAAUCUUUGUCCCUCCAUCCCCAGUGGCAUCAGGAGAGGAGUAGGUAAUGUU | 0.929
CCACUGAUUGAAAUUUUCUUCUUCCAUGGACUAAGUCCAUCUAGGAAGGAAAAAUGAGGAGAAAGAGUGUGGUAUCCUCCUUCUAAGACAGUGACCGAUUUCUCUGGGUU | 0.487
AUAUGUACUUGUUUGCUAUGACUACAUUUUGAGGUUUUGUAAAACUGUUAUUUUUUUUUUUUUCACAAUGUGAAACUGAAGGUCAAUAAAUUAUUAGAGAUUUUCUCUUC | 1.12
UUCAGUUUGUCCCUGAGACCCCUGAGUGGCCUUUGCUUCUCCAGGGUACUGGGUUGAAGAUCCAGCCACUUAAUUUCCCCUCUGAUUGUUUUGAUAUCUGAGAGACAGAA | 4.39
CGAGCAAAAGACGAGUGAUGCCAUUUGGGCUUAUUUAGAAAAAAGGGUAAGCUAGAGAGAAAAAGAAAGAACUGUCCGUCCCCCUUCCGCCUUCUCCCUUCUCUCACCCC | 0.536

For quick reference, copied from above (study 2):
Oligonucleotide | log2 enrichment
UGUGCUACACAUCGUAUGUACCGAAUCGGGAAAAAAAGGGGAAAAAAAGGGAAAAAAAGGGGAAAGUAUUAUGUUACGCCGUUCGGAUCU | -0.521
CACAGACAACACGCACCCACACAGACACAGAGGGAAGGGGUUGGGAUGAAAACAGGGUGCACAGCAGGGCGGGGUAGGACCCCAGCCCCU | -0.294
GUCCUGUGCUACACAUCGUAUGUACCGAAUCGGGGAGGGGUUUUUGGGGAAAAAGGGGAAAGUAUUAUGUUACGCCGUUCGGAUCUGCAC | 0.956
GCAGUAAGUAAAAACAAAUGGAAAUGCUUCGGAUAGUGGCAGGGGUGGGGGUUGCUAAGGAAAGGGUGGGAUGGGAGUGGGUAAAGAGUU | 1.75
UAACUUUAGAGGAGGAUCUGAUGGAUAUGGCAGUGGACGUGGAUUUGGGGAUGGCUAUAAUGGGUAUAGAGGAGGACCUGGAGGUGGCAA | -0.847
UGGGAGGUGGAUUUUGUUUAUUUUUUUAGCUCAUUUCCAGGGGUGGGAAUUUUUUUUUAAUAUGCGUCAUGAAUAAAGUUGUUUUUGAAA | 3.4
UCCUGUGCUACACAUCGUAUGUACCGAAUCAAAUUUUUAAACCCCCCCAAACCCCCAAAAAAGUAUUAUGUUACGCCGUUCGGAUCUGCA | -0.567
UCCUGUGCUACACAUCGUAUGUACCGAAUCGGGGUUUGGGGUUUUUUUGGGGUUUGGGGAAAGUAUUAUGUUACGCCGUUCGGAUCUGCA | 2.02
GUCCUGUGCUACACAUCGUAUGUACCGAAUCGGUUUUUGGGUUUUUGGGGUUUUUGGGGAAAGUAUUAUGUUACGCCGUUCGGAUCUGCA | -0.754
CCUCAAGUCCUGUGCUACACAUCGUAUGUACCGAAUCGGAAAGGAAAGGUGGAAAGUAUUAUGUUACGCCGUUCGGAUCUGCACUUCCAG | -0.875
